Published values of several laboratories.
Lines come from different studies, so protocols differ. ± gives the spread as reported.

SMILES | assay | test system | setting | endpoint | result
O=C1NC2(CC2)COc2ncc(F)cc2[C@H]2COCCN2c2ccn3ncc1c3n2 | – | Sprague-Dawley rats, female, blood | oral, 20 mg/kg/day, end of treatment, 4-week subacute toxicity | fibrinogen | 3.08 ± 0.82 g/L
Cc1sc2c(c1C)C(c1ccc(Cl)cc1)=N[C@@H](CC(=O)OC(C)(C)C)c1nnc(C)n1-2 | – | CD1 mouse, male, plasma | intravenous, 5 mg/kg | MRT(0-inf) | 0.861 h
CN1CC[C@]23c4c5ccc(O)c4O[C@H]2[C@H](O)C=C[C@@]3(O)[C@H]1C5 | – | – | – | log tautomerization constant | 0.33
COc1ccc(-n2cc(C(=O)N3C[C@]4(OC(=O)c5ccccc5NC(C)=O)CC[C@H](OC)[C@@]56[C@@H]4C[C@@H]([C@@H]35)[C@@]3(O)C[C@H](OC)[C@H]4C[C@@H]6[C@]3(O)[C@H]4OC)nn2)cc1 | – | Sprague-Dawley rat, plasma | intravenous, 2 mg/kg, 30 min | concentration | 25.2 ng/mL
C#Cc1ccc2c(c1)C(c1ccccn1)=NCc1c(-c3cnco3)ncn1-2 | – | rat, plasma | oral, 2 mg/kg | Cmax | 670 nM
CC[C@H](C)[C@H](NC(=O)[C@H](CN)NC(=O)[C@H](CCCCN)NC(=O)[C@H](CC(C)C)NC(=O)[C@H](CC(C)C)NC(=O)CNC(C)=O)C(=O)N[C@@H](CCCCN)C(=O)N[C@H](C(=O)N[C@@H](CCN)C(=O)N[C@@H](CC(C)C)C(N)=O)[C@@H](C)O | circular dichroism | water | 66 µM | helicity | 0%
O=C1CC[C@@]2(O)[C@H]3Cc4ccc(O)c5c4[C@@]2(CCN3CC2CCC2)[C@H]1O5 | – | – | – | log k amino protonation | 9.55
COc1cc2c(cc1NC(=O)c1cncn1C)C[C@H]1[C@H]3CCCC[C@@]23CCN1C | – | C57BL/6 mouse, plasma | oral | half-life | ~2 h
NC[C@]1(CC(=O)O)CC[C@@H]([18F])CC1 | PET | rhesus monkey, brain | intravenous, 180 min, baseline scan | SUV | 0.28
Oc1ccc2c3c1O[C@H]1[C@@H](O)CC[C@H]4[C@@H](C2)N(CC2CCC2)CC[C@@]341 | – | – | phenolate site | log k protonation constant | 9.37

Repeated from above:
SMILES | assay | test system | setting | endpoint | result
CN1CC[C@]23c4c5ccc(O)c4O[C@H]2[C@H](O)C=C[C@@]3(O)[C@H]1C5 | – | – | – | log tautomerization constant | 0.33
